Results pooled from the literature.
Each numbered part is a random draw from the data of one study; scales do not carry over between parts.
UniProt P31751, sequence (whole entry, looked up): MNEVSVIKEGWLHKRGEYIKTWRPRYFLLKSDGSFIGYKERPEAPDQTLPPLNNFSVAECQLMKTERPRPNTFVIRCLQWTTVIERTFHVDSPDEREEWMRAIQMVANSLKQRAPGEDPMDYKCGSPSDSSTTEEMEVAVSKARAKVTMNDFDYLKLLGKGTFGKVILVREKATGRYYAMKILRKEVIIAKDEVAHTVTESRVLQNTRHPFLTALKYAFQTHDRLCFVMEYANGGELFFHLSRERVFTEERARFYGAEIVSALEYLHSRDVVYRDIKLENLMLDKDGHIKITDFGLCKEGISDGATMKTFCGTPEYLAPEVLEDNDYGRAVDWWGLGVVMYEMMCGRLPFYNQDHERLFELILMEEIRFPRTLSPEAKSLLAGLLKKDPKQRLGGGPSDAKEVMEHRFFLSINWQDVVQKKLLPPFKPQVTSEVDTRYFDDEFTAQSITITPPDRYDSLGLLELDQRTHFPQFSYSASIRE

Set 1
Target: TATA-box-binding protein 1 (TBP1, Arabidopsis thaliana, UniProt P28147, residues 1-200, full length assumed)
Technique: protein-binding microarray
Form: double-stranded DNA, one strand shown
Medium: in vitro
Tested at: not given
Notes: k-mer, scored over probes, only values ≥0.25
Reading: higher = stronger binding
Quantity: E-score
Residues (chain): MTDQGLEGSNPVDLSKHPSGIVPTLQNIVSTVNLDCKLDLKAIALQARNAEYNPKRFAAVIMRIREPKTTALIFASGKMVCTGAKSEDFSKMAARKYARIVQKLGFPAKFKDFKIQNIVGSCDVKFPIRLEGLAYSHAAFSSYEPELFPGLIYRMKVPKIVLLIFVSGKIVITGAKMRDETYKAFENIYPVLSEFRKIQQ
TATACGA: 0.309
CCATTTA: 0.336
TATATGA: 0.412
CATATAA: 0.443
AAAAACC: 0.281
AATTAAT: 0.381
ACTTAAT: 0.285
AGTAAAT: 0.291

Set 2
Target: PABPC1L2, full length, GST fusion (mouse, UniProt A0ABA7IW68)
Technique: RNAcompete
Form: RNA
Medium: in vitro
Tested at: 20 nM
Notes: 7-mer, probes averaged, single round
Relative to: mean of 7-mers
Reading: higher = stronger binding
Quantity: 7-mer Z-score
Target sequence (chain): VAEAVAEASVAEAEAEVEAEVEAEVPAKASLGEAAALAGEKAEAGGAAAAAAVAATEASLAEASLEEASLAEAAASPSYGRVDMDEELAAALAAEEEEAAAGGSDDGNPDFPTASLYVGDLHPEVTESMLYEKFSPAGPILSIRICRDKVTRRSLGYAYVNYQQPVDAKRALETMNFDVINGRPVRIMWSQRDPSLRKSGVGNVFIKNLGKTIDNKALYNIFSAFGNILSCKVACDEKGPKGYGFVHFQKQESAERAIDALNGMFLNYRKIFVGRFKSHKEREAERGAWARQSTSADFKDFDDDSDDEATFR
CUCCCCG: -0.434
AGAGCAC: -0.175
GCAAGCG: -0.0536
UACUACU: -0.204
GGACUCA: 0.0696
GACCCAU: -0.161
AUUCCUA: -0.193
CGUCAGC: -0.358

Set 3
Target: Sal-like protein 4, full length isoform A (SALL4, Homo sapiens, UniProt Q9UJQ4, residues 1-1053)
UniProt Q9UJQ4, sequence (whole entry, looked up): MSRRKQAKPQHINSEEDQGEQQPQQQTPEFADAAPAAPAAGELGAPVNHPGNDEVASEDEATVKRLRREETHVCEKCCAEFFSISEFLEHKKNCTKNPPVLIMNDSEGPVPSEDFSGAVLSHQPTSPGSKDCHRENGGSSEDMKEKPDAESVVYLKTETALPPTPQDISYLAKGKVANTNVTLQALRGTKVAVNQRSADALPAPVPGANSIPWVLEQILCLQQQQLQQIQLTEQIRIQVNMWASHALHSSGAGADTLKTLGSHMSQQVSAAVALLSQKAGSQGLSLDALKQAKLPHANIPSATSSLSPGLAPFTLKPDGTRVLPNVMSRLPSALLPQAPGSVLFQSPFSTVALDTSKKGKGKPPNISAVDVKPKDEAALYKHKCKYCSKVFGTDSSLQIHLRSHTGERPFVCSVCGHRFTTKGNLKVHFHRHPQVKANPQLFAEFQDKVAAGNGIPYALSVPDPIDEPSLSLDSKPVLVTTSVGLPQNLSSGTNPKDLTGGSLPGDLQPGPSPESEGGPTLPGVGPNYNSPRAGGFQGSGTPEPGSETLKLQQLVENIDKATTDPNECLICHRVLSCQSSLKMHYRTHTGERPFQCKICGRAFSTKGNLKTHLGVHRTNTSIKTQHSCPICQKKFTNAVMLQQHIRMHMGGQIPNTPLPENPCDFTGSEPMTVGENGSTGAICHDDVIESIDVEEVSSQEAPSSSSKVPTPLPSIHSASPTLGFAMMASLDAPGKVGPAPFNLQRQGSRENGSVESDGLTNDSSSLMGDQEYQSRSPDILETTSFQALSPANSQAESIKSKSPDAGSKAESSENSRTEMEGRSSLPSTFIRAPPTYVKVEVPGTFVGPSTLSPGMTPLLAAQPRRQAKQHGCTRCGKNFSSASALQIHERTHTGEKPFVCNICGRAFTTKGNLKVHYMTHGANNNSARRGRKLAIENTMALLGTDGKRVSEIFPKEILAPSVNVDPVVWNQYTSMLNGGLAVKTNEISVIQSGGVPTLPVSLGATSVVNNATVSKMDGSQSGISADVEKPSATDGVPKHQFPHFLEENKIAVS
Technique: universal PBM
Form: double-stranded DNA, one strand shown
Medium: in vitro
Tested at: 600 nM
Notes: 8-mer, flanks averaged, mean of replicates
Reading: higher = stronger binding
Quantity: E-score
CCAAAGAG: -0.0115
ATGTCGGG: -0.0683
AGTATGTC: 0.116
ATAGTTGC: 0.228
AAAGCCTC: -0.105
CAGATGGA: 0.0351
ATTGATAC: 0.151
AACAGCAC: 0.0404

Mixed results
O=C1NC(=O)C(c2c[nH]c3ccccc23)=C1c1c[nH]c2ccccc12  remaining activity (RAC-beta serine/threonine-protein kinase (AKT2, Homo sapiens, UniProt P31751); enzyme activity, inhibitor; 0.5 µM; relative to: control): 102%

Some of these lines once more (set 2):
GCAAGCG: -0.0536
UACUACU: -0.204
